Assay results pooled from the literature.
Each numbered part is a random draw from the data of one study; scales do not carry over between parts.

Set 1
Target: Histone acetyltransferase KAT6A, winged helix 2, GST fusion (KAT6A, Homo sapiens, UniProt Q92794, residues 85-181)
Method: protein binding microarray
Molecule type: double-stranded DNA, one strand shown
Medium: in vitro
Tested at: not given
Setting: 8-mer, flanks averaged, mean of 2 arrays, mostly near background
Baseline: not given
Reading: higher = stronger binding
Target sequence (chain): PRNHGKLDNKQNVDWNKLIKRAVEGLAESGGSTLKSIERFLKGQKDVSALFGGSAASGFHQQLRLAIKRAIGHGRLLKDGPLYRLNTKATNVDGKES
| Sequence | E-score |
| --- | --- |
| AAGTCGAC | 0.0371 |
| AAAGGAGA | -0.0197 |
| ACTCAAGT | -0.177 |
| GCCGATCA | 0.159 |
| CGAATCGA | 0.0598 |
| ACGATTAC | -0.0631 |
| AGAAGTTA | -0.0427 |

Set 2
Target: Interferon regulatory factor 7, full length, phosphomimetic (IRF7, Homo sapiens, UniProt Q92985, residues 1-503, S471D/S472D/S475D/S476D/S477D/S483D/S484D/S487D)
UniProt Q92985, sequence (whole entry, unmodified, looked up): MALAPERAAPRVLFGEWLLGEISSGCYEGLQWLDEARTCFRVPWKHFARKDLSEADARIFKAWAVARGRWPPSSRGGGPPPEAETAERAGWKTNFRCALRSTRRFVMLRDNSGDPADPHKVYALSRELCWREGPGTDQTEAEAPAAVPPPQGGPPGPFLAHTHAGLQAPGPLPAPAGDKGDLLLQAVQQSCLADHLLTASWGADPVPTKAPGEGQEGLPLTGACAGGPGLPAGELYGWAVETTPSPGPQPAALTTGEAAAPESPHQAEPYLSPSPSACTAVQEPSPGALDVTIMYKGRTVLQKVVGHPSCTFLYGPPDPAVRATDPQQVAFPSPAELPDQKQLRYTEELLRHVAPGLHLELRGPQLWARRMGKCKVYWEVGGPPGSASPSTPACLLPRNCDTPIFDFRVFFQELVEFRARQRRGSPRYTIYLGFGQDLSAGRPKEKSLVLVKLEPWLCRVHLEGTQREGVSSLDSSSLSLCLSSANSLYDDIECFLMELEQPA
Method: protein-binding microarray
Molecule type: double-stranded DNA, one strand shown
Medium: in vitro
Tested at: 2200 nM top
Setting: 60-bp whole probe
Together with: salmon DNA 0.4 mg/ml
Baseline: random background probes
Reading: higher = stronger binding
Shared flanks, not repeated: GCCTAGCAC … GTCTTGATTCGCTTGACGCTGCTG
| Sequence | fitted relative affinity |
| --- | --- |
| TTAGAACTGAGTCTCGATTTGTGCTAG | 0.48 z-score |
| TCAATTTTGTCCTCCCCTACTGTGCTA | 1.32 z-score |
| TTAGTACTGGGTCTCGGTTAGTGCTAG | 0.53 z-score |
| TTAGGTCTCTTACTGCTTTAGTGCTAG | 0.621 z-score |
| TCACCTCTAACTTTCCAACTGTGCTAG | 2.16 z-score |
| GGGCCCTGCTGGGAAGTCAGGTGCTAG | -1.77 z-score |
| GACGAACTGAGAATCGAGACGTGCTAG | -0.245 z-score |
| TCATCTCCCATTATATTACTGTGCTAG | 2.13 z-score |

Set 3
Target: Prothrombin, mature alpha-thrombin (F2, Homo sapiens, UniProt P00734)
Method: aptamer microarray, sandwich
Molecule type: DNA with 2'F-ANA
Medium: in vitro
Tested at: 200 nM
Setting: whole 15-mer aptamer, many near background
Together with: Cy3 exosite-II aptamer, 400 nM
Reading: higher = stronger binding
Sequence: GGTTGGTGTGGTTGG
| Modification | mean fluorescence intensity [a.u.] |
| --- | --- |
| 2'F-ANA at 1 2 3 4 5 10 11 14 | 46.9 |
| 2'F-ANA at 3 5 6 9 10 11 12 15 | 71.8 |
| 2'F-ANA at 3 4 5 6 7 8 9 13 14 15 | 52.9 |
| 2'F-ANA at 3 4 5 6 8 9 12 15 | 198 |
| 2'F-ANA at 3 4 6 8 10 11 12 13 | 210 |
| 2'F-ANA at 1 3 4 5 10 11 12 14 | 46.9 |
| 2'F-ANA at 2 10 11 13 14 15 | 89.8 |

Further values, each from its own experiment
| Molecule | target | test | system | setting | scale | endpoint | value |
| --- | --- | --- | --- | --- | --- | --- | --- |
| PhoQ, residues 284 288 289 292 302 303 TYGVAM | PhoP, residues 12 14 15 18 19 LYFRQ (Escherichia coli, UniProt P23836) | Sort-seq, measured: YFP reporter | E. coli | PhoQ-PhoP variant library, together with: 10 µM Mg2+ | baseline: high Mg2+ state, higher = stronger signaling | fold induction | 9.1 |
